Experimental data collected from several papers.
Target: Histamine H3 receptor (HRH3, Homo sapiens, UniProt Q9Y5N1)
Chain of UniProt Q9Y5N1 (whole entry, looked up): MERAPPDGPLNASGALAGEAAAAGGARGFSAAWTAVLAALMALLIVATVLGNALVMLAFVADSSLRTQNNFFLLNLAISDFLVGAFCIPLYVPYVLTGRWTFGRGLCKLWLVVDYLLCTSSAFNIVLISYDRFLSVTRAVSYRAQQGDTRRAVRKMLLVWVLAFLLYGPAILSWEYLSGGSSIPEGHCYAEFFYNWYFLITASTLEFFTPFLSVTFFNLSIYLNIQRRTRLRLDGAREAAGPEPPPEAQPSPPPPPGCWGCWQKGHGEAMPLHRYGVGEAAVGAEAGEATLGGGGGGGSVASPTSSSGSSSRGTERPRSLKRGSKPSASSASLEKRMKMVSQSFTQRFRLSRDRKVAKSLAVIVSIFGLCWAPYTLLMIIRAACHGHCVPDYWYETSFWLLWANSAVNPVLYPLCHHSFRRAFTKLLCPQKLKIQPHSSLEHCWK

| SMILES | observed | action | technique | cell line | tested at | setting | inhibition |
| --- | --- | --- | --- | --- | --- | --- | --- |
| COCC(=O)N1CCc2cc(-c3csc(NC(=O)c4cc(OC)cc(OC)c4)n3)ccc21 | ligand displacement | – | radioligand | – | 10 µM | – | 0% |
| O=C1c2sc(-c3ccc(N4CCC(F)C4)nc3F)nc2CCN1c1cccnc1 (centres unmarked) | ligand displacement | – | radioligand | – | 1 µM | – | 23% |
| C[Si](C)(C)C[C@@H](CN)CC(=O)O | ligand displacement | – | radioligand | – | 75 µM | – | -18% |
| Cn1ccc2cc(-n3c(=O)[nH]c4sc5c(c4c3=O)CCCC5)ccc21 | cell-free assay | – | radioligand | – | 10 µM | – | 6% |
| CNC(=O)C[C@H](Cc1ccc(C#N)cc1)NC(=O)c1cc(-c2ccc(CN[C@H](C)c3ccc(C)cc3)o2)ccc1Cl | agonist response | antagonist | – | human cells | 10 µM | H3 antagonist | 10% |
| Cc1[nH]nc2c1N=C(c1ccccc1Cl)c1cnc(N3CCOCC3)cc1N2 | cell-free assay | – | – | – | 10 µM | – | 5% |
| COc1ccc(C(=O)Nc2c(-c3cccs3)nc3ccccn23)cc1 | ligand displacement | – | radioligand | – | 10 µM | – | < 50% |
| CC(C)Cn1c(SCC(=O)N2CCc3ccccc3C2)nc2cc(Cl)ccc2c1=O | ligand displacement | – | radioligand | – | 10 µM | – | -9% |

Some of these lines once more:
| SMILES | observed | action | technique | cell line | tested at | setting | inhibition |
| --- | --- | --- | --- | --- | --- | --- | --- |
| O=C1c2sc(-c3ccc(N4CCC(F)C4)nc3F)nc2CCN1c1cccnc1 (centres unmarked) | ligand displacement | – | radioligand | – | 1 µM | – | 23% |
